Measured values from different studies.
Values joined by “and” are separate records of one study, mostly repeats; a detail may differ. ± marks the error that the study gave. Values after ≈ are worked out from the molar mass of the structure shown.

Under “total plasma concentration ratio”, `CC(CC(=O)O)C(=O)O` (stereo not drawn) is recorded as 11 (human hemodialysis patients, plasma; pre-treatment; relative to: hemodialysis over normal subjects).
`C[C@H](Cn1cnc2c(N)ncnc21)OCP(=O)(O)O` gave a hair concentration of 0.0199 ng/mg and 0.0467 ng/mg and 0.0254 ng/mg and 0.0344 ng/mg and 0.0566 ng/mg and 0.0445 ng/mg (LC-MS/MS; human, hair; dose not given).
`acyl ghrelin (human)` has a tissue/serum ratio of 10.2 µL/g (wild-type mice, olfactory bulb; intravenous, dose not given, 10 min, vascular space corrected).
Under “apparent oral clearance”, `OCCN(CCO)c1nc(N2CCCCC2)c2nc(N(CCO)CCO)nc(N3CCCCC3)c2n1` is recorded as “no effect” (mouse, plasma; oral, together with: vincristine co-treatment; relative to: without vincristine).
With `CNCc1ccc(-c2[nH]c3cc(F)cc4c3c2CCNC4=O)cc1` the AUC(0-t) was 13900 ng·h/mL (human, fed high-fat meal, plasma; oral, 600 mg, 24 h, single dose, arithmetic mean).
`COc1cc(/C=C/c2ccc(N)cc2)cc(OC)c1` gave a concentration of 690 ± 40 ng/g (rat, perirenal fat; oral, 40 mg/kg daily for three days, 24 h, total, pooled).
The AUC(0-96 h) of `O=C(c1ccc(OCCN2CCCCC2)cc1)c1c(-c2ccc(O)cc2)sc2cc(O)ccc12` is reported as 0.0149 µM·h (healthy humans, plasma; oral, 60 mg, together with: water).
`Oc1ccc(/C=C/c2cc(O)cc(O)c2)cc1` gave a clearance of 106 mL/min/kg (male Sprague-Dawley rat, plasma; intravenous, 10 mg/kg).
For `CCC(C)n1ncn(-c2ccc(N3CCN(c4ccc(OCC5COC(Cn6cncn6)(c6ccc(Cl)cc6Cl)O5)cc4)CC3)cc2)c1=O` (stereo not drawn), the thermodynamic solubility was 2.47 ± 0.08 mg/g (shake-flask; PEG400; 37 °C).
For `CCCC[C@H](NC(C)=O)C(=O)N[C@H]1CCC(=O)NC[C@@H](C(=O)N[C@@H](Cc2c[nH]c3ccccc23)C(N)=O)NC(=O)[C@H](CCCNC(=N)N)NC(=O)[C@@H](Cc2ccccc2)NC(=O)[C@H](Cc2c[nH]cn2)NC1=O`, the Vd/F was 120 L (healthy human, both sexes, plasma; subcutaneous, 1.0 mg once daily, day 1, arithmetic mean).
With `Cn1cc(-c2ccc3nnc(Sc4ccc5ncccc5c4)n3n2)cn1` the CLint was 10.4 ± 3.2 mL/min/kg (Sprague-Dawley rat male, hepatic S9; 1 µM, pH 7.4, together with: without NADPH).
`C[C@H]1Oc2cc(cnc2N)-c2c(nn(C)c2C#N)CN(C)C(=O)c2ccc(F)cc21` has an initial clearance of 151 mL/min (human (NSCLC and healthy); oral and intravenous, 100 mg, PopPK, 70 kg subject).
`CCCC[C@H](NC(=O)CN1CCN(CC(=O)O)CCN(CC(=O)O)CCN(CC(=O)O)CC1)C(=O)N[C@H]1CC(=O)NCCCC[C@@H](C(N)=O)NC(=O)[C@H](Cc2c[nH]c3ccccc23)NC(=O)[C@H](CCCNC(=N)N)NC(=O)[C@@H](Cc2ccccc2)NC(=O)[C@H](Cc2c[nH]cn2)NC1=O` [indium-111 labelled] has an excreted dose of 87.3 ± 3.6% (female C57 mice, B16/F1 melanoma, urine; intravenous, 0.037 MBq, 24 h).
`Nc1ncn([C@H]2C[C@H](O)[C@@H](CO)O2)c(=O)n1` gave an AUC(0-180) of 6.66 µM·h (male CD-1 mice, plasma; oral, 167 mg/kg THU + 1.0 mg/kg, day 1).
For `CNc1nc(Nc2ccc(-n3cnc(C)n3)c(OC)c2)nc2c1CC[C@H]2c1ccc(F)cc1`, the Tmax was 5 h (human, plasma; oral, 50 mg, multiple doses, once daily).
`Cc1cc(Nc2cc3ncccc3c(N[C@@H]3C[C@H]4CC[C@@H](C3)N4CCC#N)n2)n[nH]1` gave a Cmax of 2.75 ng/mL (pregnant rat, maternal plasma; oral, 30 mg/kg/day, gestation day 17).
`Cc1c(Cl)cccc1Nc1ccccc1C(=O)O` has a thermodynamic solubility of 46.8 ± 7 mg/g (shake-flask; PEG400; 37 °C).
For `Cc1ccc(N2CCN(CC(O)COc3ccccc3C(=O)CCc3ccccc3)CC2)cc1` (stereo not drawn), the scaled CLint was 30.4 mL/min/kg (metabolic stability; female mouse, liver microsomes; 20 µM, pH 7.4).
The thermodynamic solubility of `O=C(Nc1ccc([N+](=O)[O-])cc1Cl)c1cc(Cl)ccc1O` is reported as 30.2 ± 1.77 mg/g (shake-flask; polysorbate 80; 37 °C).
For `CS/C(S)=N/CCCC[S+](C)[O-]` (racemic), “mRNA fold change” read 1.12 (RT-PCR, measured: Cyp2c6; rat, liver; oral gavage, 200 mg/kg, dosed for four days; relative to: vehicle).
For `CC(=O)c1c(C)c2cnc(Nc3ccc(N4CCS(=N)(=O)CC4)cn3)nc2n(C2CCCC2)c1=O`, the thermodynamic solubility was 30 µg/mL (≈ 60.5 µM) (shake flask; water; pH 6.5).
The tmax of `CS(=O)(=O)Nc1ccc(C(=O)O[C@@H](Cc2c(Cl)c[n+]([O-])cc2Cl)c2ccc(OC(F)F)c(OCC3CC3)c2)cc1OCC1CC1` is reported as 3 h (human, plasma; inhalation, 2400 µg twice daily, day 1, median).
With `CCCCCCCCC[C@H](O)CC(=O)CCc1ccc(O)c(OC)c1` the recovery was 1.51% (rat, small intestine site 4 contents; oral, dose not given, 2 h, no β-glucuronidase treatment; relative to: ingested amount).
`CC(C)NCC(O)COc1cccc2ccccc12` (stereo not drawn) has a QTc change of 1.1 ± 1.4% (male Hartley guinea pig, anaesthetized; intravenous infusion, 3 mg/kg, 10 min infusion; relative to: baseline).
`Cn1c(-c2ccc(C(N)=O)cc2F)nnc1C(C)(C)Oc1c(F)cc(Cl)cc1F` gave a Tmax median of 3 h (young Japanese adults, plasma; oral, 10 mg single dose, day 1, high-dose multiple-dose study).
For `CC(C)(Oc1ccc(C(=O)c2ccc(Cl)cc2)cc1)C(=O)O`, the thermodynamic solubility was 57.1 ± 2.49 mg/g (shake-flask; polysorbate 80; 37 °C).
With `C[C@H](CS)C(=O)N1CCC[C@H]1C(=O)O` the QTc change was -1.3 ± 1.4% (male Hartley guinea pig, anaesthetized; intravenous infusion, 10 mg/kg, 10 min infusion; relative to: baseline).
Under “time above MIC”, `CN[C@H](CC(C)C)C(=O)N[C@H]1C(=O)N[C@@H](CC(N)=O)C(=O)N[C@H]2C(=O)N[C@H]3C(=O)N[C@H](C(=O)N[C@H](C(=O)O)c4cc(O)cc(O)c4-c4cc3ccc4O)[C@H](O)c3ccc(c(Cl)c3)Oc3cc2cc(c3O[C@@H]2O[C@H](CO)[C@@H](O)[C@H](O)[C@H]2O[C@H]2C[C@](C)(N)[C@H](O)[C@H](C)O2)Oc2ccc(cc2Cl)[C@H]1O` is recorded as 99% (pig, Danish Landrace, plasma; intravenous, 1000 mg over 100 min, 450 min dosing interval, together with: 4.0 µg/mL MIC; relative to: dosing interval).
For `CCn1c2ccccc2c2cc(-n3nncc3-c3ccccc3)ccc21`, the Tmax was 0.67 h (female BALB/c mouse, kidney; intraperitoneal, 10 mg/kg, single dose).
With `COc1cnc(C(=O)Nc2ccc(F)c([C@]34CN(c5ncc(F)cn5)C[C@H]3CSC(N)=N4)c2)cn1` the brain concentration was 0.11 µM (PDAPP mice, brain; oral, 3.0 mg/kg, 3 h).
`CS(=O)(=O)OC[C@H](O)[C@@H]1CO1`: “concentration in red blood cells” 11 µM and 15 µM and 30 µM (Wistar rat, female, red blood cells; intraperitoneal, 500 mg/kg treosulfan, 1 h).
The thermodynamic solubility of `CCN(CC)C(=S)SSC(=S)N(CC)CC` is reported as 54.7 ± 2.39 mg/g (shake-flask; Captex 355; 37 °C).
The plasma concentration of `C[C@H](Oc1ccc(-c2nc(-c3ccc4[nH]cnc4c3)no2)cc1C(F)(F)F)C(F)(F)F` is reported as 0.0093 ± 0.0022 µM (cynomolgus monkey, aneurysm model, plasma; 0.1 mg/kg once daily, 1 h post-dose, 3 months dosing).
`Cc1cc(Nc2ncc(Cl)c(Nc3ccccc3S(=O)(=O)C(C)C)n2)c(OC(C)C)cc1C1CCNCC1` gave a Kp of 55 (measured: total drug; human, enhancing tumour over plasma; oral, 450 mg/day, 23 to 25 h after dose 10).
`QFDEPR` gave a peptide cleavage of < 10% (substrate, gel electrophoresis; peptide, mouse, PyMT tumour, PyMT tumour tissue extract; 5 µM, 16 h, 37 °C, 2% extract, 1 mM ZnCl2).
`CCCCC/C=C/C(=O)CCc1ccc(O)c(OC)c1` has a recovery of 0.35% (rat, small intestine site 4 contents; oral, dose not given, 2 h, no β-glucuronidase treatment; relative to: ingested amount).

Repeated from above:
`CCCCC/C=C/C(=O)CCc1ccc(O)c(OC)c1` has a recovery of 0.35% (rat, small intestine site 4 contents; oral, dose not given, 2 h, no β-glucuronidase treatment; relative to: ingested amount).
`CS(=O)(=O)OC[C@H](O)[C@@H]1CO1`: “concentration in red blood cells” 11 µM and 15 µM and 30 µM (Wistar rat, female, red blood cells; intraperitoneal, 500 mg/kg treosulfan, 1 h).
With `CCCCCCCCC[C@H](O)CC(=O)CCc1ccc(O)c(OC)c1` the recovery was 1.51% (rat, small intestine site 4 contents; oral, dose not given, 2 h, no β-glucuronidase treatment; relative to: ingested amount).
`C[C@H](Cn1cnc2c(N)ncnc21)OCP(=O)(O)O` gave a hair concentration of 0.0199 ng/mg and 0.0467 ng/mg and 0.0254 ng/mg and 0.0344 ng/mg and 0.0566 ng/mg and 0.0445 ng/mg (LC-MS/MS; human, hair; dose not given).
`CC(C)NCC(O)COc1cccc2ccccc12` (stereo not drawn) has a QTc change of 1.1 ± 1.4% (male Hartley guinea pig, anaesthetized; intravenous infusion, 3 mg/kg, 10 min infusion; relative to: baseline).
The thermodynamic solubility of `CCN(CC)C(=S)SSC(=S)N(CC)CC` is reported as 54.7 ± 2.39 mg/g (shake-flask; Captex 355; 37 °C).
